Experimental data pooled from the literature.
Compare with care: the assays were run in different laboratories. “And” joins repeats or separate records; there may be more than shown. Numbers after ± are the reported error.
UCHL1: Ubiquitin carboxyl-terminal hydrolase isozyme L1 (UCHL1, Homo sapiens, UniProt P09936)
ADRA2C: Alpha-2C adrenergic receptor (ADRA2C, Homo sapiens, UniProt P18825)
Voltage-dependent P/Q-type calcium channel subunit alpha-1A: Voltage-dependent P/Q-type calcium channel subunit alpha-1A (Homo sapiens, UniProt O00555)

| Compound | target or system | test | system | conditions | how to read | measurement | result |
| --- | --- | --- | --- | --- | --- | --- | --- |
| Cc1cc(Nc2cc(N3CCN(C)CC3)nc(Sc3ccc(NC(=O)C4CC4)cc3)n2)[nH]n1 | PDGFRB (Homo sapiens, UniProt P09619) | kinase activity, KinaseProfiler |  | 0.03 µM, species human | relative to: control | remaining activity | 108% |
| Cc1ccc(Sc2ccc(NC(=O)CCl)cc2)cc1C | UCHL1 | covalent, intact protein LC-MS |  | 12.5 µM |  | labelling | 12.9% |
| Nc1nc(SCc2ccc(Cl)cc2)nn1S(=O)(=O)c1ccc(Br)cc1 | Lysophospholipase-like protein 1 (Mus musculus, UniProt Q3UFF7) | enzyme activity, activator, gel-based ABPP | purified protein | concentration not given, with: FP-rhodamine | relative to: DMSO | probe labeling increase | 2.3 fold |
| Oc1ccccc1-c1n[nH]cc1-c1ccnc2ccccc12 | Serine/threonine-protein kinase HSL1 (HSL1, Candida albicans, UniProt Q5AG71) | kinase binding, MIB/MS competition | Candida albicans lysate | 1 µM | relative to: DMSO, negative = stronger binding | log2 fold change | 0.1 |
| O=C(CCl)Cc1c(F)cccc1F | UCHL1 | covalent, intact protein LC-MS |  | 12.5 µM |  | labelling | 4.74% |
| Cc1cc(Oc2ncccc2CN2CCN(c3ccccc3O)CC2)ccc1-c1c(C)c(=O)[nH]c(=O)n1C | ADRA2C | binding, radioligand binding |  | with: [3H]rauwolscine | relative to: Ki alpha2A over Ki alpha2C | selectivity ratio | 5 |
| O=c1cc(-c2ccc([N+](=O)[O-])cc2)[nH]c2c(-c3ccc(Cl)cc3)c(Cc3ccccc3)nn12 | Glyoxylate reductase/hydroxypyruvate reductase (Homo sapiens, UniProt Q9UBQ7) | thermal stability, binder, thermal proteome profiling | RD, cell lysate | 50 µM, 0.5% DMSO | relative to: DMSO vehicle | melting temperature shift | 4.7 °C |
| CO[C@@H]1O[C@@H](C)[C@@H](O)[C@@H](O)[C@@H]1O | fleA (Aspergillus fumigatus, UniProt Q4WW81) | ITC |  |  |  | -TΔS | 1.84 kcal/mol |
| Cc1ccc(C(=O)N(CCCN)[C@@H](c2oc3cc(Cl)ccc3c(=O)c2Cc2ccccc2)C(C)C)cc1 | Toxoplasma gondii | parasite growth | HFF, bradyzoite, alkaline-induced |  |  | EC90 | 8.94 µM |
| CC(C)OCCn1c(=S)[nH]c(=O)c2[nH]ccc21 | Myeloperoxidase (MPO, Homo sapiens, UniProt P05164) | H2O2 consumption, inhibitor, H2O2 electrode |  | 0.45 µM, 0.3 s |  | H2O2 concentration | -0.47 µM |
| CC(=O)N1CCc2c(NS(=O)(=O)c3cccc(Cl)c3O)cccc21 | malate dehydrogenase | enzyme activity, inhibitor |  | 200 µM, pH 7.0, 1% DMSO, aggregation counter-screen |  | remaining activity | 86% |
| C[C@@H](c1ccc(-n2cnc3c(N)ncnc32)cc1)N1CCc2nn(C)c(Cc3ccccc3)c2C1=O | CDK13 (Homo sapiens, UniProt Q14004) | KINOMEscan |  | 0.1 µM | relative to: DMSO | remaining binding | 45% |
| O=C(O)c1ccc(Nc2ncc3c(n2)-c2ccc(Cl)cc2C(c2c(F)cccc2F)=NC3)cc1 | Ret(h) | kinase activity |  | 1 µM |  | remaining activity | 80% |
| O=C(CCCc1ccccc1)C(=O)NCCc1ccc(Oc2ccc(C(F)(F)F)cn2)cc1 | Pyruvate kinase PKM (PKM, Homo sapiens, UniProt P14618) | inhibitor, FP-biotin chemoproteomics, item: KPYM | HepG2 | concentration not given | relative to: DMSO, lower = stronger inhibition | probe-enriched protein abundance | 102000 a.u. |
| O=C(CCl)Cc1c(Cl)cccc1Cl | UCHL1 | covalent, intact protein LC-MS |  | 12.5 µM |  | labelling | 22.3% |
| CC[C@H]1CN2CCc3cc(OC)c(OC)cc3[C@@H]2C[C@@H]1C[C@H]1NCCc2cc(OC)c(OC)cc21 | Toxoplasma gondii | parasite growth | HFF, bradyzoite, glutamine-induced |  |  | EC50 | 1.08 µM |
| N=C(N)Nc1nc2ccccc2[nH]1 | HVCN1 (Homo sapiens, UniProt Q96D96, F182W) | proton current, inhibitor, inside-out patch clamp |  |  |  | Hill coefficient | 0.88 ± 0.03 |
| N[C@@H](CCC(=O)O)C(=O)O | glc-2 (Caenorhabditis elegans, UniProt Q17328, R340A/R342A/R351A/R352A/R353A/S341A/T283S) | two-electrode voltage clamp | Xenopus laevis oocytes |  |  | mean current | 4.1 µA |
| CC(Cl)C(=O)N(Cc1ccc(Cl)cc1)Cc1cnn(C)c1 (stereo not shown) | UCHL1 | covalent, intact protein LC-MS |  | 12.5 µM |  | labelling | 11% |
| CC[C@@H]1[C@H](F)C(=O)N[C@@H]1COc1nccc2cc(C(N)=O)c(OC)cc12 | STK38L (Homo sapiens, UniProt Q9Y2H1) | ATP-site probe binding, ActivX profiling | THP-1 cell lysate | 0.04 mM, Lys2 site |  | inhibition | 7.6% |

| Compound | target or system | test | system | conditions | how to read | measurement | result |
| --- | --- | --- | --- | --- | --- | --- | --- |
| COCCC(=O)N1CCC(Oc2ccccc2)C1 (stereo not shown) | Leucine-rich repeat serine/threonine-protein kinase 2, WD40 domain (LRRK2, Homo sapiens, UniProt Q5S007) | binding, affinity selection mass spectrometry |  |  | relative to: other proteins in batch | log fold enrichment | 0.279 |
| CCCCCCCC(=O)c1cc(OC)c(OC)c(OC)c1CC(=O)OCC | HNF4A (Homo sapiens, UniProt P41235) | reporter gene, Gal4 hybrid reporter |  | 10 µM | relative to: vehicle | activation | 0.84 fold |
| O=C(O)c1ccc(O)cc1 | BEST1 (Homo sapiens, UniProt O76090) | whole-cell patch clamp | HEK293 transiently expressing channel | concentration not given, membrane potential 0 mV |  | current density | 0.08 pA/pF and 0.06 pA/pF and -0.08 pA/pF and -0.09 pA/pF and 0.07 pA/pF and 0.05 pA/pF and 0.02 pA/pF |
| CC(=Cc1ccccc1)C=C(C#N)C(=O)Nc1nccs1 | UCHL1 | covalent, intact protein LC-MS |  | 12.5 µM |  | labelling | 16.6% |
| CC(=O)Oc1ccccc1C(=O)O | Voltage-dependent P/Q-type calcium channel subunit alpha-1A | ion current, antagonist | HEK293 | 3 µM |  | inhibition | 8% |
| O=C(Nc1cc(-c2ccccn2)n[nH]1)N1CC[C@@H](Oc2ccc(F)cc2)C1 | Trypanosoma cruzi | reporter translation, Renilla luciferase mRNA translation | cell-free extract | 40 µM | relative to: DMSO | inhibition | -1.3% |
| Nc1ncnc2c1ncn2[C@@H]1O[C@H](COP(=O)(O)OP(=O)(O)O)[C@@H](O)[C@H]1O | GUK1 (Homo sapiens, UniProt Q16774) | binding, isothermal titration calorimetry |  | molar ratio 2.17, fitted curve |  | ΔH | -0.328 kcal/mol |
| CCN(c1ccccc1)S(=O)(=O)c1ccc(Cl)c(C(=O)Nc2ccccc2N2CCN(C)C2=O)c1 | N-myristoyltransferase (Cryptosporidium parvum, UniProt Q5CV46) | enzyme activity, inhibitor |  |  | relative to: HsNMT1 IC50 over target IC50 | selectivity ratio | ~5 fold |
| O=S(=O)(CC=C(Cl)Cl)N1CCSSCC1 | UCHL1 | covalent, intact protein LC-MS |  | 12.5 µM |  | labelling | 13.1% |
| O=c1nc(SCc2cc(F)cc(C(F)(F)F)c2)nc(SCc2ccc3nc(Cl)ccc3c2)[nH]1 | TOP2B (Homo sapiens, UniProt Q02880) | decatenation |  | 125 µM, replicate 2 |  | decatenated DNA | 1.19% |
| Cc1cc(Oc2ncccc2CN2CCN(c3ccc(F)c(F)c3)CC2)ccc1-c1c(C)c(=O)[nH]c(=O)n1C | ADRA2C | binding, radioligand binding |  | with: [3H]rauwolscine | relative to: Ki alpha2B over Ki alpha2C | selectivity ratio | 3 |
| CN(C)c1ccc(CNCCC2CCOC(C)(C)C2)cc1.Cl (stereo not shown) | Trypanosoma cruzi | reporter translation, Renilla luciferase mRNA translation | cell-free extract | 40 µM | relative to: DMSO | inhibition | -0.46% |
| [O-][S+]1CCCCS1 (stereo not shown) | SOD1 (Homo sapiens, UniProt P00441, G94A) | LC-MS | brain homogenate | 50 µM, 1 h, 37 °C |  | SOD1 dimer fraction | 14.7% |
| Cc1ccc(NC(=O)N2CCN(C(=O)C(C)Cl)CC2)cc1Cl (stereo not shown) | UCHL1 | covalent, intact protein LC-MS |  | 12.5 µM |  | labelling | 13.3% |
| O=C1CN(c2ccc(NS(=O)(=O)c3cccc(Cl)c3O)cn2)CCN1 | malate dehydrogenase | enzyme activity, inhibitor |  | 200 µM, pH 7.0, 1% DMSO, aggregation counter-screen |  | remaining activity | 137% |
| COCCNC(=O)C(C#N)=Cc1c(F)cccc1Cl | UCHL1 | covalent, intact protein LC-MS |  | 12.5 µM |  | labelling | 16.6% |
| C#CCCC1(CC[C@H](NC(=O)NCCCCCCNC(=O)NCCNC(=O)COc2cccc([C@@H](CCc3ccc(OC)c(OC)c3)OC(=O)[C@@H]3CCCCN3C(=O)C(=O)C(C)(C)CC)c2)C(N)=O)N=N1.O=C(O)C(F)(F)F | FKBP1A (Homo sapiens, UniProt P62942) | photoaffinity labeling, in-gel fluorescence, item: Alexa Fluor 647 click label |  | 10 µM, UV irradiation 365 nm | higher = more labeling | probe labeling fluorescence | 51900 a.u. |
| CN(C)CCCN1c2ccccc2Sc2ccc(Cl)cc21 | Voltage-dependent P/Q-type calcium channel subunit alpha-1A | ion current, antagonist | HEK293 | 30 µM |  | inhibition | 96% |
| C[C@H]1O[C@H](O[C@H]2[C@H](O)[C@@H](O)[C@@H](O[C@H]3[C@H](O)[C@@H](O)C(O)O[C@@H]3CO)O[C@@H]2CO)[C@H](O)[C@@H](O)[C@@H]1N[C@H]1C=C(CO)[C@@H](O)[C@H](O)[C@H]1O (stereo partly shown) | α-amylase isoenzymes | native PAGE densitometry, item: abnormal band |  | 1 mg/mL |  | band share | 100% |
| Cc1cnc(C(=O)NCCNC(=O)Cn2[nH]c(=O)c3ccccc3c2=O)cn1 | TNKS (Homo sapiens, UniProt O95271) | enzyme activity, inhibitor |  |  |  | ligand efficiency | 0.51 |

Excerpt of the above:
| Compound | target or system | test | system | conditions | how to read | measurement | result |
| --- | --- | --- | --- | --- | --- | --- | --- |
| O=c1cc(-c2ccc([N+](=O)[O-])cc2)[nH]c2c(-c3ccc(Cl)cc3)c(Cc3ccccc3)nn12 | Glyoxylate reductase/hydroxypyruvate reductase (Homo sapiens, UniProt Q9UBQ7) | thermal stability, binder, thermal proteome profiling | RD, cell lysate | 50 µM, 0.5% DMSO | relative to: DMSO vehicle | melting temperature shift | 4.7 °C |
| CO[C@@H]1O[C@@H](C)[C@@H](O)[C@@H](O)[C@@H]1O | fleA (Aspergillus fumigatus, UniProt Q4WW81) | ITC |  |  |  | -TΔS | 1.84 kcal/mol |
| Cc1ccc(C(=O)N(CCCN)[C@@H](c2oc3cc(Cl)ccc3c(=O)c2Cc2ccccc2)C(C)C)cc1 | Toxoplasma gondii | parasite growth | HFF, bradyzoite, alkaline-induced |  |  | EC90 | 8.94 µM |
| CC(C)OCCn1c(=S)[nH]c(=O)c2[nH]ccc21 | Myeloperoxidase (MPO, Homo sapiens, UniProt P05164) | H2O2 consumption, inhibitor, H2O2 electrode |  | 0.45 µM, 0.3 s |  | H2O2 concentration | -0.47 µM |
| CC(=O)N1CCc2c(NS(=O)(=O)c3cccc(Cl)c3O)cccc21 | malate dehydrogenase | enzyme activity, inhibitor |  | 200 µM, pH 7.0, 1% DMSO, aggregation counter-screen |  | remaining activity | 86% |
| C[C@@H](c1ccc(-n2cnc3c(N)ncnc32)cc1)N1CCc2nn(C)c(Cc3ccccc3)c2C1=O | CDK13 (Homo sapiens, UniProt Q14004) | KINOMEscan |  | 0.1 µM | relative to: DMSO | remaining binding | 45% |
